Experimental data from different studies.
Lines come from different studies, so protocols differ. Several values in a cell are separate wells, animals, samples, runs or records. ± marks the error that the study gave.
DRD3: D(3) dopamine receptor (DRD3, Homo sapiens, UniProt P35462)
TNKS2: Poly [ADP-ribose] polymerase tankyrase-2 (TNKS2, Homo sapiens, UniProt Q9H2K2)

C=CC(=O)Nc1cc(Nc2nccc(-c3cn(C)c4ccccc34)n2)c(OC)cc1N(C)CCN(C)C — IC50 (Multidrug and toxin extrusion protein 1 (SLC47A1, Homo sapiens, UniProt Q96FL8); inhibitor): 4.63 µM
CC(C)C(=O)OCC(=O)[C@@]12O[C@H](C3CCCCC3)O[C@@H]1C[C@H]1[C@@H]3CCC4=CC(=O)C=C[C@]4(C)[C@H]3[C@@H](O)C[C@@]12C — IC50 (Nuclear receptor ROR-gamma (RORC, Homo sapiens, UniProt P51449); reporter gene, inhibitor, GAL4 dual-luciferase reporter; HEK293T; 24 h): 2.08 ± 0.4 µM
CCCCN(CCCC)C(=O)c1c(C)[nH]c(C)c1S(=O)(=O)Nc1ccc(C(F)(F)F)c(Cl)c1 — IC50 (DRD3; β-arrestin recruitment, antagonist, PathHunter; with: dopamine EC80): > 100 µM
O=C(/C=C/c1cccc(OS(=O)(=O)Oc2ccc(C(F)(F)F)cc2)c1)NO — IC50 (Histone deacetylase 3, with NCoR2 DAD (HDAC3, Homo sapiens, UniProt O15379); enzyme activity, inhibitor, fluorogenic; with: substrate 20 µM): 0.194 µM
N#Cc1nc2c(nc1C#N)-c1ccc(Cl)cc1C2=O — IC50 (Ubiquitin thioesterase OTUB1 (OTUB1, Homo sapiens, UniProt Q96FW1); deubiquitinase activity, inhibitor, MALDI-TOF DUB; 30 °C, 35 min pre-incubation): 3.93 µM
CC1=CC(=O)c2ccccc2C1=O — IC50 (Coagulation factor XIII A chain (F13A1, Homo sapiens, UniProt P00488); crosslinking activity; with: DTT): > 50 µM
Cc1cnc(-c2ccc(-c3ccc(NC(=O)Nc4c(F)cc(F)cc4F)cc3F)c3c2C(=O)NC3)[nH]1 — IC50 (Tyrosine-protein kinase ITK/TSK (ITK, Homo sapiens, UniProt Q08881); enzyme activity, inhibitor, mobility shift; with: ATP 1 mM): 0.0144 µM
Cc1ccc(Cn2nnc3c4ccccc4c(=O)[nH]c32)cc1 — IC50 (TNKS2; inhibitor): 0.055 µM
CN1CCN(c2ccc(Nc3ncc4cc(C#N)c(=O)n(C5CCCC5)c4n3)cc2)CC1 — IC50 (Serine/threonine-protein kinase Sgk1, Δ1-59 (SGK1, Homo sapiens, UniProt O00141, S422D)): 3.95 µM
C=CCN(CC=C)C(=O)c1c(C)[nH]c(C)c1S(=O)(=O)Nc1ccc(C(F)(F)F)c(Cl)c1 — IC50 (DRD3; Go activation, antagonist, BRET; with: dopamine): > 100 µM
CC[C@@H]1[C@H](F)C(=O)N[C@@H]1COc1nccc2cc(C(N)=O)c(OC)cc12 — IC50 (Calcium/calmodulin-dependent protein kinase type II subunit delta (CAMK2D, Homo sapiens, UniProt Q13557); ATP-site probe binding, inhibitor, ActivX ATP probe profiling; THP-1 cell lysate; probe site Lys1): 3.2 µM
COc1cc(C)c2cc(C3(NS(=O)(=O)c4ccccc4-c4ccccc4)COC3)oc2c1 — IC50 (Histone acetyltransferase KAT6A, residues 194-810 (KAT6A, Homo sapiens, UniProt Q92794); enzyme activity, inhibitor): > 20 µM
COc1ccc(Cn2nnc3c4ccc(F)cc4c(=O)[nH]c32)cc1 — IC50 (TNKS2; inhibitor): 0.0316 µM
Cc1[nH]c(C)c(S(=O)(=O)Nc2ccc(C(F)(F)F)c(Cl)c2)c1C(=O)N(C)Cc1ccccc1 — IC50 (DRD3; β-arrestin recruitment, antagonist, PathHunter; with: dopamine EC80): > 100 µM
CC[C@H](C)[C@@H]1NC(=O)[C@H](CCCNC(=N)N)NC(=O)[C@H](CCCNC(=N)N)NC(=O)[C@H](CCCCN)NC(=O)CNC(=O)[C@H](CCCNC(=N)N)NC(=O)[C@H]([C@@H](C)O)NC(=O)[C@H](CCCNC(=N)N)NC(=O)[C@H](C(C)C)NC(=O)[C@H](CCCNC(=N)N)NC(=O)[C@@H]2CCCN2C(=O)[C@H]2CCCN2C(=O)[C@H](CCCNC(=N)N)NC(=O)[C@H](CCCNC(=N)N)NC1=O — IC50 (human Dicer; pre-miR-21 processing, denaturing gel; 90 min, 37 °C): ~10 µM
Cc1ccc(NS(=O)(=O)c2c(C(=O)N3CCC(F)(F)C3)cnn2C)cc1Cl — IC50 (DRD3; Go activation, antagonist, BRET; with: dopamine): > 100 µM
O=C(O)CC(=O)C(=O)O — IC50 (Hypoxia-inducible factor 1-alpha inhibitor (HIF1AN, Homo sapiens, UniProt Q9NWT6); enzyme activity, inhibitor; pH 7): > 1000 µM
Cc1ccc(NS(=O)(=O)c2c(C)[nH]c(C)c2C(=O)N2CCC(F)(F)C2)cn1 — IC50 (DRD3; β-arrestin recruitment, antagonist, PathHunter; with: dopamine EC80): > 100 µM
O=C(N/N=C/c1ccc2cc[nH]c2c1)c1cc2c(s1)CCCC2 — IC50 (1-deoxy-D-xylulose-5-phosphate synthase (dxs, Deinococcus radiodurans, UniProt Q9RUB5)): 15.8 µM and 14.3 µM
CC[C@H](C)[C@H](NC(=O)[C@@H](N)CC(C)C)C(=O)N[C@@H](CCCCN)C(=O)N[C@@H](C)C(=O)N[C@@H](CCCCN)C(=O)N[C@@H](CCCNC(=N)N)C(=O)N[C@@H](CCCCN)C(=O)N[C@@H](CCCNC(=N)N)C(=O)N[C@@H](CCCCN)C(=O)N[C@@H](CCCCN)C(=O)O — IC50 (Coagulation factor V, activated factor Va (F5, Homo sapiens, UniProt P12259); prothrombinase activity, inhibitor): 110 µM
O=c1[nH]c2c(nnn2-c2ccc(Br)cc2)c2ccccc12 — IC50 (TNKS2; ADP-ribosyltransferase activity, inhibitor, NAD+ consumption fluorescence): > 10 µM
C[C@]12CC[C@@H]3c4ccc(O)cc4C[C@@H](CCCCCCCCC[S+]([O-])CCCC(F)(F)C(F)(F)F)[C@H]3[C@@H]1CC[C@@H]2O (stereo partly shown) — IC50 (Progesterone receptor (PGR, Homo sapiens, UniProt P06401); PR receptor activity, agonist, cell-based): > 10 µM
Cc1[nH]c(C)c(S(=O)(=O)Nc2ccc(C(C)(C)O)c(Cl)c2)c1C(=O)N1CCC(F)(F)C1 — IC50 (DRD3; Go activation, antagonist, BRET; with: dopamine): > 100 µM
COc1cc2nccc(Oc3ccc(NC(=O)c4cc5c(n(-c6ccccc6)c4=O)CCCC5=O)nc3)c2cc1OC — IC50 (Ephrin type-A receptor 5 (EPHA5, Homo sapiens, UniProt P54756); cell viability, CellTiter-Glo; Ba/F3 expressing recombinant kinase; 48 h): > 0.1 µM
CC(C)Oc1c(NC(=O)c2ccc(N3C(=O)C[C@H](NC(=O)c4cc(F)c(/N=N/c5c(F)cccc5F)c(F)c4)C3=O)cc2)ccc(C(=O)N/N=C/c2c(Cl)cncc2Cl)c1O — IC50 (DNA gyrase (gyrA/gyrB, Escherichia coli, UniProt P0AES4+P0AES6); DNA supercoiling, inhibitor; 30 min, 37 °C, dark thermally adapted state, with: relaxed pUC19 DNA): > 25 µM
O=C(Nc1ccc(Cl)cc1)c1ccc([N+](=O)[O-])o1 — IC50 (Glutathione reductase, mitochondrial (GSR, Homo sapiens, UniProt P00390); enzyme activity, inhibitor; NCI-H23 cell lysate): 3.3 µM
COc1cccc(Cn2nnc3c4ccccc4c(=O)[nH]c32)c1 — IC50 (TNKS2; inhibitor): 0.0955 µM
Cc1[nH]c(C)c(S(=O)(=O)Nc2ccc(C(F)(F)F)c(Cl)c2)c1C(=O)N1C2CCC1CC2 — IC50 (DRD3; Go activation, antagonist, BRET; with: dopamine): > 100 µM
CC(=O)OC1CC2CCC1(C)C2(C)C (stereo not shown) — IC50 (tyrosinase; monophenolase activity, inhibitor; pH 6.8, 37 °C, with: L-tyrosine): > 30 mg/mL
Cc1ccccc1Cn1nnc2c3ccc(F)cc3c(=O)[nH]c21 — IC50 (TNKS2; ADP-ribosyltransferase activity, inhibitor, NAD+ consumption fluorescence): 0.11 µM
Cc1[nH]c(C)c(S(=O)(=O)Nc2ccc(C(F)(F)F)c(Cl)c2)c1C(=O)N1CC2(CCC2)C1 — IC50 (DRD3; Go activation, antagonist, BRET; with: dopamine): > 100 µM

Some of these lines once more:
COc1cc(C)c2cc(C3(NS(=O)(=O)c4ccccc4-c4ccccc4)COC3)oc2c1 — IC50 (Histone acetyltransferase KAT6A, residues 194-810 (KAT6A, Homo sapiens, UniProt Q92794); enzyme activity, inhibitor): > 20 µM
COc1cc2nccc(Oc3ccc(NC(=O)c4cc5c(n(-c6ccccc6)c4=O)CCCC5=O)nc3)c2cc1OC — IC50 (Ephrin type-A receptor 5 (EPHA5, Homo sapiens, UniProt P54756); cell viability, CellTiter-Glo; Ba/F3 expressing recombinant kinase; 48 h): > 0.1 µM
